{"data": "Measured values gathered from unrelated publications", "target": "Mitogen-activated protein kinase 13 (MAPK13, Homo sapiens, UniProt O15264)", "One construct used (O15264 1-365)": "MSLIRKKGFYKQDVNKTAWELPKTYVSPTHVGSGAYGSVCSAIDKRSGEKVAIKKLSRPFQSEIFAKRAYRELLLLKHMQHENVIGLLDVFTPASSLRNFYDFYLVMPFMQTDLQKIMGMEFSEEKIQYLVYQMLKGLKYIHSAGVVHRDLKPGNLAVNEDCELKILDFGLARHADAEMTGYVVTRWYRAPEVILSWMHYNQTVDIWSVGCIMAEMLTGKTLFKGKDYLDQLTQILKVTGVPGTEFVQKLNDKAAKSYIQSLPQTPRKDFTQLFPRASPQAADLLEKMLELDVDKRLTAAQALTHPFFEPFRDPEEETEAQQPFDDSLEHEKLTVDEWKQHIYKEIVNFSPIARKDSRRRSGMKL", "note": "Protocols differ between the studies behind these lines. Values joined by “and” are separate records of one study, mostly repeats; a detail may differ."}
{"SMILES": "CCn1cc(C(=O)O)c(=O)c2c(N)c(F)c(NC3CCCCC3)cc21", "test": "kinase activity", "conditions": "0.1 µM, added: ATP at Km", "endpoint": "inhibition", "result": "8.2%"}
{"SMILES": "C=CC(=O)N1CCCC(n2c(=O)c3ncccc3n(Cc3ccc(Oc4ccccc4)cc3)c2=O)C1 (centres unmarked)", "test": "cell-free assay, competition with immobilised ligand", "conditions": "1 µM", "endpoint": "remaining binding", "result": "95%"}
{"SMILES": "NC(=O)C[C@H]1CCc2sc3ncnc(O[C@H]4CC[C@H](N5CCOCC5)CC4)c3c21", "test": "enzyme activity, inhibitor", "conditions": "10 µM", "endpoint": "inhibition", "result": "0%"}
{"SMILES": "COc1ccc(NC(=O)Nc2ccc3c(c2)C(=O)N(C(C)CO)CC(C)C(CN(C)Cc2ccc4c(c2)OCO4)O3)cc1 (centres unmarked)", "test": "kinase activity, KinaseProfiler", "conditions": "0.03 µM, species human", "scale": "reference: control", "endpoint": "remaining activity", "result": "81%"}
{"SMILES": "Cc1cnc2nc1Nc1cccc(c1)COC/C=C/COCc1cc(ccc1OCCN1CCOCC1)N2", "test": "binding, competition with immobilised ligand", "conditions": "0.1 µM", "endpoint": "remaining binding", "result": "88%"}
{"SMILES": "O=C(Cc1ccc(OCc2ccccc2)cc1)NC1(C(=O)O)CCN(C(=O)c2ccc(-c3cccc(Cl)c3)cc2)CC1", "test": "enzyme activity, inhibitor", "conditions": "10 µM", "endpoint": "activity vs control", "result": "113%"}
{"SMILES": "Cc1cccc(O[C@H]2CCC[C@@H](C(C)CNCc3ccncc3)C2)c1 (relative stereo)", "test": "enzyme activity, inhibitor", "conditions": "10 µM", "endpoint": "inhibition", "result": "-5%"}
{"SMILES": "C=CC(=O)Nc1cccc(-c2cnc3[nH]cc(C(=O)NC(C)(C)C)c3n2)c1", "test": "kinase activity", "conditions": "0.1 µM", "endpoint": "inhibition", "result": "2% and 3%"}
{"SMILES": "O=C=[N][Ru-4]123([n]4c5ccc(O)cc5c5c6c(c7cc(F)c[n+]1c7c54)C(=O)NC6=O)[S+]1CC[S+]2CC[S+]3CC1 (centres unmarked)", "test": "enzyme activity", "conditions": "100 nM, human enzyme, added: 10 µM ATP", "scale": "reference: untreated", "endpoint": "remaining activity", "result": "91%"}
{"SMILES": "CN1CCN(Cc2ccc(-c3ccc(CO[C@H]4CCC[C@@H]4NC(=O)c4cc(-c5cnn(C)c5)cnc4N)cc3)cc2)CC1", "test": "enzyme activity, inhibitor", "conditions": "0.1 µM", "endpoint": "inhibition", "result": "5%"}
{"SMILES": "CNC(=O)C[C@H](Cc1ccc(C#N)cc1)NC(=O)c1cc(-c2ccc(CN[C@H](C)c3ccc(C)cc3)o2)ccc1Cl", "test": "enzyme activity, inhibitor", "conditions": "1 µM", "endpoint": "activity vs control", "result": "104%"}
{"SMILES": "Cc1ccc(C)c(-c2ccc3nc(NC(=O)C4CCCCC4)nn3c2)c1", "test": "enzyme activity, Dundee kinase panel", "conditions": "10 µM", "endpoint": "remaining activity", "result": "74%"}
{"SMILES": "Nc1ncc(-c2cc(-c3cnn(CC(F)(F)F)c3)ncc2F)nc1C(=O)NC1CNCC(F)C1 (centres unmarked)", "test": "enzyme activity", "conditions": "1 µM", "scale": "reference: DMSO control", "endpoint": "remaining activity", "result": "99.6%"}
{"SMILES": "Cc1cccc(-c2ccc3nc(NC(=O)C4CCOCC4)nn3c2)c1", "test": "enzyme activity, Dundee kinase panel", "conditions": "10 µM", "endpoint": "remaining activity", "result": "75%"}
{"SMILES": "COc1c(OCCCN2CCOCC2)ccc2c1N=C(NC(=O)c1cnc(N)nc1)N1CCN=C21", "test": "kinase activity, inhibitor", "conditions": "1 µM", "scale": "reference: untreated control", "endpoint": "remaining activity", "result": "113%"}
{"SMILES": "COc1cc(Nc2nccc(-c3cnn4nc(OC)ccc34)n2)cc(C(F)(F)F)c1", "test": "binding, competition with immobilised ligand", "conditions": "1 µM", "endpoint": "remaining binding", "result": "98%"}
{"SMILES": "CC(C)=CC1OC(C)(C)C2C=C3C(=O)C(Cl)=CC(O)C3C3C(O)C4OC4C(=O)C132 (centres unmarked)", "test": "cell-free assay, competition with immobilised ligand", "conditions": "10 µM", "endpoint": "remaining binding", "result": "63%"}
